Results pooled from the literature.
Protocols differ between the studies behind these lines.
Matrix: plasma

| Structure (SMILES) | test | test system | conditions | scale | endpoint | result |
| --- | --- | --- | --- | --- | --- | --- |
| COc1cc2c(cc1OC)[C@H]1C[C@H](O)[C@H](CC(C)C)CN1CC2 | measured: non-deuterated analyte | healthy human male | oral, 25 mg, geometric mean, [14C]-tetrabenazine dosed |  | AUC(0-t) | 0.0242 µg·h/mL |
| CC[C@H](C)[C@@H]1NC(=O)[C@H](Cc2ccc(O)cc2)NC(=O)CCCSC[C@@H](C(=O)N(CC(=O)N[C@@H](CC(C)C)C(=O)NCC(N)=O)Cc2ccc(F)cc2)NC(=O)[C@H](CC(N)=O)NC(=O)[C@H](CCC(N)=O)NC1=O |  | healthy human | intranasal, 50 µg every 3 h, after second dose |  | AUC(0-t) | 2.8e-05 µg·h/mL |
| CN1CCC[C@]1(C)/C=C/S(=O)(=O)NC(=O)Nc1c2c(cc3c1CC(O)C3)CCC2 (stereo partly drawn) |  | human | oral, 50 mg twice daily of parent drug, day 14, metabolite of dosed drug |  | AUC(0-t) | 147 µg·h/mL |
| COc1cc2c(cc1O)CCN1C[C@@H](CC(C)C)[C@H](O)C[C@H]21 | measured: non-deuterated analyte | healthy human male | oral, 25 mg, geometric mean, [14C]-tetrabenazine dosed |  | AUC(0-t) | 0.0325 µg·h/mL |
| Cc1cc(F)ccc1-c1cc(N2C[C@H]3COC(O)CN3C[C@H]2CO)ncc1N(C)C(=O)C(C)(C)c1cc(C(F)(F)F)cc(C(F)(F)F)c1 (stereo partly drawn) |  | human | oral, 120 mg, geometric mean |  | AUC(0-t) | 2.38 µg·h/mL |
| CN1CCC[C@]1(C)/C=C/S(=O)(=O)NC(=O)Nc1c2c(cc3c1C(O)CC3)CCC2 (stereo partly drawn) |  | human | oral, 50 mg twice daily of parent drug, day 14, metabolite of dosed drug |  | AUC(0-t) | 297 µg·h/mL |
| O=C(CCc1ccc(CNC(C(=O)OC2CCCC2)C2CCCCC2)cn1)NO (stereo not drawn) |  | healthy male humans | oral, 20 mg, single dose | reference: fed over fasted | AUC(0-t) ratio | 1.49 |
| CN1CCC[C@]1(C)/C=C/S(=O)(=O)NC(=O)Nc1c2c(cc3c1CCC3)CC=C2 |  | human | oral, 12.5 mg twice daily of parent drug, day 14, metabolite of dosed drug |  | AUC(0-t) | 189 µg·h/mL |
| O=C(CCc1ccc(CNC(C(=O)O)C2CCCCC2)cn1)NO (stereo not drawn) |  | healthy male humans | oral, 20 mg, single dose | reference: fed over fasted | AUC(0-t) ratio | 1.25 |
| CN(C(=O)C(C)(C)c1cc(C(F)(F)F)cc(C(F)(F)F)c1)c1cnc(N2C[C@H]3COCCN3C[C@H]2CO)cc1-c1ccc(F)cc1CO |  | human | oral, 120 mg, geometric mean |  | AUC(0-t) | 1.25 µg·h/mL |
| CN1CCC[C@]1(C)/C=C/S(=O)(=O)NC(=O)Nc1c2c(cc3c1CCC3O)CCC2 (stereo partly drawn) |  | human | oral, 100 mg twice daily of parent drug, day 14, metabolite of dosed drug |  | AUC(0-t) | 1930 µg·h/mL |
| CC1(C)CC[C@]2(NC(=O)C(C)(F)F)CC[C@]3(C)[C@H](C(=O)C=C4[C@@]5(C)C=C(C#N)C(=O)C(C)(C)[C@@H]5CC[C@]43C)[C@@H]2C1 |  | human | oral, 150 mg, alone, geometric least-squares mean |  | AUC(0-t) | 1.34 µg·h/mL |
